Published values from different studies.
Each numbered part is a random draw from the data of one study; scales do not carry over between parts.

Block 1 — mode: degrader; method: HiBiT; cell line: HEK293; tested at: 10000 nM
Target: CRBN/Zinc finger protein Helios (Homo sapiens, UniProt Q96SW2+Q9UKS7)
UniProt Q96SW2, sequence (whole entry, looked up): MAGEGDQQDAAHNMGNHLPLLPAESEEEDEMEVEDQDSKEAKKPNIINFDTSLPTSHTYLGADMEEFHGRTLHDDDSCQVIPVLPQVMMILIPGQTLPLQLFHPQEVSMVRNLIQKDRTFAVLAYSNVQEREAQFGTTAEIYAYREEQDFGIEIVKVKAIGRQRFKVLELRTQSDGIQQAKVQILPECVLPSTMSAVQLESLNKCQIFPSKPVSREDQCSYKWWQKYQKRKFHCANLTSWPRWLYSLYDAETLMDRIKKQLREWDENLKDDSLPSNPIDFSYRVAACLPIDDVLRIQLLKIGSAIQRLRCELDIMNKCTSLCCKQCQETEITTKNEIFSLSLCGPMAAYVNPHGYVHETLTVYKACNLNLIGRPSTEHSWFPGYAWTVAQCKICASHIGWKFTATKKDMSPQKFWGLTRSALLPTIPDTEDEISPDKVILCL
UniProt Q9UKS7, sequence (whole entry, looked up): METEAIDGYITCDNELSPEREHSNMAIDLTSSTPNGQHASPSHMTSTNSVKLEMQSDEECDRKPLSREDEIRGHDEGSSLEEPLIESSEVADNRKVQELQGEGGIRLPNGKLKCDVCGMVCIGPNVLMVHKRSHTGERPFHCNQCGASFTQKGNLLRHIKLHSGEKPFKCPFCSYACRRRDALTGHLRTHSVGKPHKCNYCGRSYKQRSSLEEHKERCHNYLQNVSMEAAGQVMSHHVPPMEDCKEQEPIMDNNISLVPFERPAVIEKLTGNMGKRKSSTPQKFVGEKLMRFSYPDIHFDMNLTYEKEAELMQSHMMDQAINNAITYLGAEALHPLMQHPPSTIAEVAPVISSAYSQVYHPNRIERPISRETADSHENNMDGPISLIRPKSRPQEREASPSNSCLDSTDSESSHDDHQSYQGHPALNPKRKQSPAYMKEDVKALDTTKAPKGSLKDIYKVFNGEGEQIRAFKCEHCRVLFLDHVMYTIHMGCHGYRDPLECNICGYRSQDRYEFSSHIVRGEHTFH
SMILES | protein remaining [%]
O=C1CCC(N2Cc3c(ccc4c3OCC43CCN(Cc4ccsc4)CC3)C2=O)C(=O)N1 (stereo not drawn) | 17.4
O=C1CCC(N2Cc3c(ccc4c3OCC43CCN(Cc4ccccc4)C3)C2=O)C(=O)N1 (stereo not drawn) | 67.4
O=C1CCC(N2Cc3c(ccc4c3OCC43CCCN(Cc4ccccc4)CC3)C2=O)C(=O)N1 (stereo not drawn) | 90.5
O=C1CCC(N2Cc3c(ccc4c3OCC43CCN(CC4CCCCC4)CC3)C2=O)C(=O)N1 (stereo not drawn) | 31.3
O=C1CCC(N2Cc3c(ccc4c3OCC43CCN(Cc4ccccc4)CC3(F)F)C2=O)C(=O)N1 (stereo not drawn) | 33.8
O=C1CCC(N2Cc3c(ccc4c3OCC43CCN(Cc4ccccn4)CC3)C2=O)C(=O)N1 (stereo not drawn) | 36

Block 2 — effect on: enzyme activity; mode: inhibitor; tested at: 10 µM
Target: Calcium/calmodulin-dependent protein kinase type II subunit alpha (CAMK2A, Homo sapiens, UniProt Q9UQM7)
UniProt Q9UQM7, sequence (whole entry, looked up): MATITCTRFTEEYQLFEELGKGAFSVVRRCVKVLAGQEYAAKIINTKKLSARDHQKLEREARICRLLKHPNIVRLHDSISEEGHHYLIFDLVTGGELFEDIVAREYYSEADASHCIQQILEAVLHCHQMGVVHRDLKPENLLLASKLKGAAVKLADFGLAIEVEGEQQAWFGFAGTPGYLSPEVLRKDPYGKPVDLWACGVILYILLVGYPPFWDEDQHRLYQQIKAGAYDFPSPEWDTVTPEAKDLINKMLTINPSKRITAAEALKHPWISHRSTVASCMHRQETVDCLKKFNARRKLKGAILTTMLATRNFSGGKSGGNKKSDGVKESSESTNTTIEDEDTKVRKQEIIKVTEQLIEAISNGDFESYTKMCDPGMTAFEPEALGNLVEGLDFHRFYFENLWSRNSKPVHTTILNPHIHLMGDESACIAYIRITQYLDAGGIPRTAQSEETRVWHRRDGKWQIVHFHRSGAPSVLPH
SMILES | inhibition
C[C@@H](O)[C@@H]1NC(=O)[C@H](CCCCN)NC(=O)[C@@H](Cc2c[nH]c3ccccc23)NC(=O)[C@H](Cc2ccccc2)NC(=O)[C@@H](NC(=O)[C@H](N)Cc2ccccc2)CSSC[C@@H](C(=O)N[C@H](CO)[C@@H](C)O)NC1=O | -6%
C=C(C)c1cc2cc(C(C)=O)c(O)cc2o1 | 37%
CC(C)(O)[C@H]1O[C@H]2CC[C@@]3(C)[C@@](O)(CC[C@H]4Cc5c([nH]c6ccccc56)[C@@]43C)C2=CC1=O | -11%
C[C@H]1CCC[C@@H](O)CCCCCc2cc(O)cc(O)c2C(=O)O1 | 6%
Cc1ncc(OC[C@@]2(c3cccc(F)c3)C[C@H]2C(=O)Nc2ccc(F)cn2)c(C)n1 | -1%
CN(C(=O)/C=C/c1ccoc1)[C@@H]1CC[C@@]2(O)[C@H]3Cc4ccc(O)c5c4[C@@]2(CCN3CC2CC2)[C@H]1O5 | 0%
C[C@H]1CC[C@@H]2N(C1)C[C@H]1[C@@H]3C[C@H]4[C@@H](C[C@H](O)[C@H]5C[C@@H](O)CC[C@@]54C)[C@@H]3CC[C@@H]1[C@]2(C)O | 34%

Block 3 — cell line: HEK-293T/ACE2; tested at: 10 µM; time: 16 h; relative to: vehicle
SMILES | viability [%]
O=C(C1CCCCC1)N1CC(=O)N2CCc3ccccc3C2C1 (stereo not drawn) | 103
CN(C)CCCN1c2ccccc2Sc2ccccc21 | 96.7
CCS(=O)(=O)CCn1c([N+](=O)[O-])cnc1C | 94.2
O=c1oc2ccccc2c(O)c1Cc1c(O)c2ccccc2oc1=O | 97.2
CC(C)[C@H](N)C(=O)OCC(CO)OCn1cnc2c(=O)nc(N)[nH]c21 (stereo partly drawn) | 103
CO/N=C(\C(=O)N[C@@H]1C(=O)N2C(C(=O)OCOC(=O)C(C)(C)C)=C(/C=C\c3scnc3C)CS[C@H]12)c1csc(N)n1 | 94.3
CC(C)Cc1ccc(C(C)C(=O)O)cc1 (stereo not drawn) | 98.2

Block 4 — mode: inhibitor; tested at: 10 µM; relative to: control
Target: Diamine acetyltransferase 1 (Homo sapiens, UniProt P21673)
Target sequence (P21673 1-171): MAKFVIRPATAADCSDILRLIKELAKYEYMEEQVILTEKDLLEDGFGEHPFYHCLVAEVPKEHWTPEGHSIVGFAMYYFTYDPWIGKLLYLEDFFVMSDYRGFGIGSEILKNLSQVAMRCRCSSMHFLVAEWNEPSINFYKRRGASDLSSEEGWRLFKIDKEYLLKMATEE
SMILES | remaining activity [%]
N#C[C@H](O[C@@H]1O[C@H](CO[C@@H]2O[C@H](CO)[C@@H](O)[C@H](O)[C@H]2O)[C@@H](O)[C@H](O)[C@H]1O)c1ccccc1 | 95.8
CC(C)c1ccc(CO)cc1 | 108
CCCCCc1cc(O)c2c(c1)OC(C)(CCC=C(C)C)C=C2 (racemic) | 91.1
NCCc1c[nH]c2ccccc12 | 97.4

Some of these lines once more (block 2):
SMILES | inhibition
C[C@H]1CCC[C@@H](O)CCCCCc2cc(O)cc(O)c2C(=O)O1 | 6%
Cc1ncc(OC[C@@]2(c3cccc(F)c3)C[C@H]2C(=O)Nc2ccc(F)cn2)c(C)n1 | -1%
CN(C(=O)/C=C/c1ccoc1)[C@@H]1CC[C@@]2(O)[C@H]3Cc4ccc(O)c5c4[C@@]2(CCN3CC2CC2)[C@H]1O5 | 0%
